# Published values from different studies.
# Each line is one published result; not all experiments were run side by side. ± gives the spread as reported.
Molecule,cell line,assay,conditions,EC50
Cc1cc(NC(=O)c2cccc(NC(=O)/C=C/CN(C)C)c2)ccc1Nc1nccc(-c2cccnc2)n1,SH-SY5Y MKK7 inducible,"c-Jun Ser73 phosphorylation, inhibitor, western blot, measured: phospho-c-Jun Ser73","6 h, with: doxycycline",0.76 ± 0.12 µM
Nc1ncnc2[nH]ncc12,KM12,cell viability,,1 µM
insulin human,HMEC,"DNA synthesis, agonist, 3H-thymidine incorporation",HSA 0%,0.0037 µM
CC[C@H](C)[C@H](NC(=O)[C@H](CCC(=O)O)NC(=O)[C@H](CC(=O)O)NC(=O)CNC(=O)[C@H](CC(C)C)NC(=O)[C@H](CCCNC(=N)N)NC(=O)[C@H](CCCNC(=N)N)NC(=O)[C@H](CC(C)C)NC(=O)CNC(=O)[C@H](CCC(N)=O)NC(=O)[C@@H](NC(=O)[C@H](CCSC)NC(=O)[C@H](Cc1c[nH]c2ccccc12)NC(=O)[C@@H](NC(=O)[C@H](CCC(=O)O)NC(=O)[C@@H]1CCCN1C(=O)[C@H](CCCNC(=N)N)NC(C)=O)[C@@H](C)CC)[C@@H](C)O)C(=O)N[C@@H](CC(N)=O)C(=O)N[C@@H](C)C(=O)N[C@@H](Cc1ccc(O)cc1)C(=O)N[C@@H](Cc1ccc(O)cc1)C(=O)N[C@@H](C)C(=O)N[C@@H](CCCNC(=N)N)C(N)=O,Mcl-1-dependent multiple myeloma cells,"mitochondrial depolarization, BH3 profiling",,~3 µM
C#Cc1cccc(Nc2ncnc3cc(OCCOC)c(OCCOC)cc23)c1,mouse tumour organoids,"cell viability, CellTiter-Glo",72 h,5 µM
C[C@]12CC[C@H]3C(=CC=C4C[C@@H](O)CC[C@@]43C)[C@@H]1CC[C@@H]2C(=O)CO,SK-MEL-188 amelanotic melanoma,"cell growth, inhibitor, MTT",48 h,0.091 µM
CC1(C)CC(=O)C2=C(C1)Nc1cc(C(=O)c3ccccc3)ccc1NC2c1ccc(N2CCCCC2)cc1 (centres unmarked),H4,cytoprotection,with: thapsigargin 7.5 µM,14.7 ± 3.52 µM
Cc1ccc(C)c(CNC(=O)CNC(=O)c2cccc(Cl)c2C)c1,INS1,"cell viability, protective, CellTiter-Glo","72 h, with: tunicamycin 0.15 µg/mL",13 ± 1 µM
O=C(N[C@@H]1CCCc2c1[nH]c1ccc(Cl)cc21)c1ccccn1,Vero,"cell growth, MTS",,0.012 µM
CC1(C)CC(=O)C2=C(C1)Nc1cc(C(F)(F)F)ccc1NC2c1ccc(N2CCCCC2)cc1 (centres unmarked),H4,cytoprotection,with: thapsigargin 7.5 µM,< 20 µM
neurotensin,BON,"EGFR Tyr1068 phosphorylation, western blot",,0.00044 ± 8e-05 µM
CC1(C)CC(=O)C2=C(C1)Nc1cc(C(=O)c3ccccc3)ccc1NC2c1ccc(N2CCCC2)cc1 (centres unmarked),H4,cytoprotection,with: thapsigargin 7.5 µM,19 ± 1.28 µM
O=c1ccn([C@@H]2O[C@H](COP(=O)(O)OP(=O)(O)OP(=O)(O)OC[C@@H]3O[C@@H](n4ccc(=O)[nH]c4=O)C(O)[C@@H]3O)[C@H](O)C2O)c(=O)[nH]1 (some centres unmarked),MIN6,"intracellular calcium increase, agonist, FLIPR",room temperature,0.0032 ± 0.0007 µM
CCN(CC)c1ccc(C2Nc3ccc(-c4ccccc4)cc3NC3=C2C(=O)CC(C)(C)C3)cc1 (centres unmarked),H4,cytoprotection,with: thapsigargin 7.5 µM,9.6 ± 1.06 µM
Fc1ccc(CNc2ncnc3ccc(F)cc23)cc1,human PBMC,"T cell expansion, resazurin","7 days, with: concanavalin A 2 µg/mL",> 25 µM
CC1(C)CC(=O)C2=C(C1)Nc1cc(C(=O)c3ccccc3)ccc1NC2c1ccc(N2CCOCC2)cc1 (centres unmarked),H4,cytoprotection,with: thapsigargin 7.5 µM,18.9 ± 1.3 µM
insulin icodec,HMEC,"DNA synthesis, agonist, 3H-thymidine incorporation",HSA 0%,1.88 µM

# For quick reference, copied from above:
Molecule,cell line,assay,conditions,EC50
Nc1ncnc2[nH]ncc12,KM12,cell viability,,1 µM
CC1(C)CC(=O)C2=C(C1)Nc1cc(C(=O)c3ccccc3)ccc1NC2c1ccc(N2CCCCC2)cc1 (centres unmarked),H4,cytoprotection,with: thapsigargin 7.5 µM,14.7 ± 3.52 µM
O=c1ccn([C@@H]2O[C@H](COP(=O)(O)OP(=O)(O)OP(=O)(O)OC[C@@H]3O[C@@H](n4ccc(=O)[nH]c4=O)C(O)[C@@H]3O)[C@H](O)C2O)c(=O)[nH]1 (some centres unmarked),MIN6,"intracellular calcium increase, agonist, FLIPR",room temperature,0.0032 ± 0.0007 µM
